Measurements gathered from unrelated publications.
Numbered parts are unrelated; each lists some results of a single study.

Sample 1 — method: RNA Bind-n-Seq; molecule type: RNA; medium: in vitro; concentration: 200 nM; setting: whole 134-nt RNA, ends assumed; together with: 150 mM KCl; baseline: input library; direction: higher = stronger binding
Target: Fragile X messenger ribonucleoprotein 1, C-terminal low-complexity region (Fmr1, Mus musculus, UniProt P35922)
Strand	log2 enrichment
GGGAGUUCUACAGUCCGACGAUCUGCAGAUUGAUGAGUAUGAUCACUCCAAGCCCAUCCAGGGGCAACAGAAGAAGCCCUUUGAGGUGCACUGGAGGAAGCACACCCUGUCCUUGGAAUUCUCGGGUGUCAAGG	-2.2
GGGAGUUCUACAGUCCGACGAUCUAAUUGUGAUCUACAUUUUAAAAUAUCAAGAGAUCGUCUCAGUGCUUCUUCCCUUACAAUGGAGAGUUUUGCUUUUCUUUGGGCUGGAGGUGGAAUUCUCGGGUGUCAAGG	-0.599
GGGAGUUCUACAGUCCGACGAUCGCCCUGUAAUCGUGGAGAUCCCGCACUUUGCCUCCCAUGGCCGUGGAGACCGCGAGCUCGUGGUUCUGAGGAGCGAAAACGGCUCCGUGUUGGAAUUCUCGGGUGUCAAGG	-1.83
GGGAGUUCUACAGUCCGACGAUCUGCUUCAUCGCCUUGUGCUCCUGCCCCUGGGAGCUGUGGAUCCCAGAUCCAGAUGACAGCCCACCUUGCUGGCAGGAUGCGCCAAUCCCCUGGAAUUCUCGGGUGUCAAGG	-0.332

Sample 2 — method: competition protein-binding microarray; molecule type: double-stranded DNA, one strand shown; medium: in vitro; concentration: 2 µM; together with: Pho4 competitor, 0.05 µM; direction: higher = stronger binding
Target: Centromere-binding protein 1, full length, His-tagged (CBF1, Saccharomyces cerevisiae, UniProt P17106, residues 1-351)
UniProt P17106, sequence (whole entry, looked up): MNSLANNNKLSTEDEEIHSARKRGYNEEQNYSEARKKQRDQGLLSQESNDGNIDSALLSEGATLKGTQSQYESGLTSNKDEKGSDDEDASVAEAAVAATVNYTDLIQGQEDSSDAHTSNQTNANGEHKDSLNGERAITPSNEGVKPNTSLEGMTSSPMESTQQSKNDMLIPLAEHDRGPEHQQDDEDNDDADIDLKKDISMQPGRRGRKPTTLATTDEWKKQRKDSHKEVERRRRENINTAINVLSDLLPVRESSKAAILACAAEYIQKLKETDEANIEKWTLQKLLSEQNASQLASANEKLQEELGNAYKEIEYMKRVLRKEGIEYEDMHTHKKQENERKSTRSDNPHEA
Setting: whole 60-bp probe, lowest competitor level
Strand	fluorescence intensity
GCTTGTTCATACAAGCTCGTGTAGCTAAATACGTACGTCTTGATTCGCTTGACGCTGCTG	95.8 a.u.
CTTTCCCGATCTTTTCACGTGATTTTAGCACATTTGGTCTTGATTCGCTTGACGCTGCTG	3210 a.u.
GCCACCAACAATACCTTCGTGGGACATAGTTAAGTCGTCTTGATTCGCTTGACGCTGCTG	77.9 a.u.
GTCTTGTCTCATTGAGCTGTGGGTGTCCCCACTTCAGTCTTGATTCGCTTGACGCTGCTG	62.6 a.u.

Sample 3 — method: protein-binding microarray; molecule type: double-stranded DNA, one strand shown; medium: in vitro; concentration: 940 nM top; setting: 60-bp whole probe; together with: salmon DNA 0.4 mg/ml; baseline: random background probes; direction: higher = stronger binding
Target: Interferon regulatory factor 5, full length, phosphomimetic (IRF5, Homo sapiens, UniProt Q13568-2, residues 1-514, S451D/S453D/S456D/S462D)
Strand	fitted relative affinity [z-score]
GCCTAGCACGACGATATCGGGACTGGGGACGTGCTAGTCTTGATTCGCTTGACGCTGCTG	-0.0322
GCCTAGCACTTAGGTATCGGGTATCGATTAGTGCTAGTCTTGATTCGCTTGACGCTGCTG	6.93
GCCTAGCACTTAGGGCTGCTTCTCCTTTAGTGCTAGGTCTTGATTCGCTTGACGCTGCTG	-0.295
GCCTAGCACTTAGGTCGCCTTTTCCTTTAGTGCTAGGTCTTGATTCGCTTGACGCTGCTG	0.0414

Other studies, line by line
Substance	target	assay	test system	setting	scale	measurement	result
PhoQ, residues 284 288 289 292 302 303 AANNSF	PhoP, residues 12 14 15 18 19 LHHVQ (Escherichia coli, UniProt P23836)	Sort-seq, item: YFP reporter	E. coli	PhoQ-PhoP variant library, together with: 10 µM Mg2+	baseline: high Mg2+ state, higher = stronger signaling	fold induction	26.2

Repeated from above (sample 1):
Strand	log2 enrichment
GGGAGUUCUACAGUCCGACGAUCUAAUUGUGAUCUACAUUUUAAAAUAUCAAGAGAUCGUCUCAGUGCUUCUUCCCUUACAAUGGAGAGUUUUGCUUUUCUUUGGGCUGGAGGUGGAAUUCUCGGGUGUCAAGG	-0.599
